Assay results collected from several papers.
A part holds a random share of what one study measured. Substitutions count along the parent as printed.

Series 1 — target: CREM, bZIP domain (human); technique: DHFR protein complementation; sample: yeast; reference: wild-type JUN-FOS pair; direction: higher = stronger binding
Setting: single substitutions, most at no-binding floor
Starting sequence: JUN, bZIP domain (human); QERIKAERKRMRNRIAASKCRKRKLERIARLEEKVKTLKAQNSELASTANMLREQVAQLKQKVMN; partner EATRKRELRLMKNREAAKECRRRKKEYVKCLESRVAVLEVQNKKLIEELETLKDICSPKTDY
Variant | binding fitness
Q41P | -1.54 natural log
A29M | -1.39 natural log
T48C | -1.49 natural log
K36W | -1.52 natural log
L38R | -1.52 natural log
L31G | -1.51 natural log
A49K | -1.47 natural log
S47G | -1.45 natural log
L45F | -1.42 natural log
K36L | -1.43 natural log
L38F | -1.5 natural log
M51L | -1.47 natural log
R30V | -1.41 natural log
N42I | -1.47 natural log
E44W | -1.44 natural log
S43T | -1.26 natural log
S47F | -1.44 natural log
E32W | -1.52 natural log
Q41L | -1.55 natural log
A49R | -1.43 natural log
V56M | -1.53 natural log
T48P | -1.55 natural log
T37D | -1.34 natural log
E33L | -1.41 natural log
R30L | -1.13 natural log

Series 2 — technique: DHFR PCA, deep sequencing; sample: yeast; added: (+)-ABA 4.8 µM; reference: wild-type fitted maximum; direction: higher = stronger binding
Target: ABI1, truncated, D143A, DHFR fusion (Arabidopsis thaliana)
Setting: methotrexate growth selection, single substitutions
Starting sequence: PYL1, truncated, DHFR fusion (Arabidopsis thaliana); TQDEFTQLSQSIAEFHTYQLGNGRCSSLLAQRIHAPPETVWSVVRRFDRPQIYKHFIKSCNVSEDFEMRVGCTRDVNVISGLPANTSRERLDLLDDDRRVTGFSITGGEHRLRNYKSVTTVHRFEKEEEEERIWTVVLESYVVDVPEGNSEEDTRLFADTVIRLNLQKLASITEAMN; partner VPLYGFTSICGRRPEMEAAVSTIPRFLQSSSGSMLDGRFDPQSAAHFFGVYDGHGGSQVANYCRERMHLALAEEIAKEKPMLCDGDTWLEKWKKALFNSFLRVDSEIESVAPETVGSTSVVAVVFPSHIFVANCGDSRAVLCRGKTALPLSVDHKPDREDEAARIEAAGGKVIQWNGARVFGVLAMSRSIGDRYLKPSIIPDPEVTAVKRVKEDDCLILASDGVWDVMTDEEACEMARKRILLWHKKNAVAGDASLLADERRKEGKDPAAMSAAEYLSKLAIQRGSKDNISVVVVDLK
Variant | relative binding score [%]
E152L | 51.2
E127K | 82.8
H55S | 83.4
S9D | 68.4
T73I | 79.6
Q2Y | 68.5
S27C | 5.75
K116I | 0.992
E109S | 60.9
R24P | -1.31
L166F | -6.5
K126E | 84.8
R24Y | 26.4
T17P | 7.02
S9R | 76.9
S150G | 15.6
V40I | 8.82
G148F | 12.4
P50S | 0.699
Y115V | 2.85
V161Y | 8
E131M | 74.2
R155Q | 53.9
A170K | 95.4
V43W | 1.42

Series 3 — technique: protein binding microarray; form: double-stranded DNA, one strand shown; sample: in vitro; tested at: not given; reference: not given; direction: higher = stronger binding
Target: Histone acetyltransferase KAT6A, both winged helices, GST fusion (KAT6A, Homo sapiens, UniProt Q92794, residues 1-181)
Setting: 8-mer, flanks averaged, mean of 2 arrays, mostly near background
Residues (chain): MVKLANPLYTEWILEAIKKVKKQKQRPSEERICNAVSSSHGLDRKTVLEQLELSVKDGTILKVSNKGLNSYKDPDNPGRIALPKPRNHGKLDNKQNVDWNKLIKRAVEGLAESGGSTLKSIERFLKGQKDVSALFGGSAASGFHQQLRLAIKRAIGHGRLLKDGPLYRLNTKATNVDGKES
Oligonucleotide | E-score
GTAAGACA | -0.0158
AAGGTCGC | 0.1
CTTTCCTA | -0.111
CACGTAGA | -0.257
AGCTCCAC | -0.135
TCAGCAAA | -0.0187
CCAACCGC | 0.18
ATTACTGG | -0.277
AAAACGAT | -0.156
CGGTTTTA | 0.153
AGCGCATA | 0.188
GACTTGCA | -0.0588
GCAACTCA | -0.0641
AGACTTCC | -0.1
ACACGCTA | 0.176
ACTATTTC | -0.0232
AAAGGCAT | -0.174

Series 4 — technique: RNA Bind-n-Seq; form: RNA; sample: in vitro; tested at: 365 nM; reference: no-protein control; direction: higher = stronger binding
Target: RNA binding protein fox-1 homolog 2, RRM domain, GST-SBP tag (RBFOX2, Homo sapiens, UniProt O43251-10, residues 100-194)
Setting: natural RNA segment, single round, ends assumed
Residues (chain): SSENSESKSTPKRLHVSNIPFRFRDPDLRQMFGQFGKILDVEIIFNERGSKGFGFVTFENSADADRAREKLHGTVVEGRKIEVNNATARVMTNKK
Oligonucleotide | RBNS enrichment (R)
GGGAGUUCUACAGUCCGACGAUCCCUACAUGGUGUGAUGCUGCAUUAUAUAUACAACCGUGUGCAUAUAUUAAAUUCUGUUUGUCGAGUCUGCUUGGGAUUCUUUGGUCUUUGGGUAACCCAAUAUAUCAUAUUGGAAUUCUCGGGUGCCAA | 1.36
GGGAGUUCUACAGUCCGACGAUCGAAGUGGAUUUUUAAAAAACAGUUAAAUGUGUGUGCAUAACACACAAGUAAUGACACACUACUAUUAUUAUUACCUAAGUAGUGCUCAUCCUCUCUUUCUGUGUUUUCUUUGGAAUUCUCGGGUGCCAA | 0.242
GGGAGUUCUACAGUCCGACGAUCUGGCAUCUUUUUAAUACCAGGAACCCAGCGGCUCUAGCCACUGAGCGGCUAAAUGAAAUAAAGUGGAAAAAAAAAAAAAGGAAAAAACCAAAAGCAUAAAAAACCACAGCUGGAAUUCUCGGGUGCCAA | 0.618
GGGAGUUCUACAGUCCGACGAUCAUAAAGAAGCUAACCUGCCAUAGUCAGACUUCAGACUUUCAAGAUUAUUCUAAAUCACCAGAAAAUUAAUUUCAGUUUCUAUUGGGAGUUUAUACCAAGAGAUUCUUCUAUGGAAUUCUCGGGUGCCAA | 0.486
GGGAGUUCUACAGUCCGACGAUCAAUUCAACCACUCUCCUAAAAUGGUGUUUAAAUAUUUUGUAGGGCAGAAUAUGCAUAUUGCCUGUUAGCAAGUAAUAAUUCAUUCUCAUAGAGAAAUGGGUUUUUACCCAUGGAAUUCUCGGGUGCCAA | 0.689
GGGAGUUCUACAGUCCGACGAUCAUCUCAUAUUAGGAUUUUCUGUCCUUAAUUUUUUGAGCAAAAUCUGGAAAAUGUGAAAGCAUAUUUAGAUUUUAUAUACUAUCUGAAAUGUGAUUUGUUAAGAUUCUUAAUGGAAUUCUCGGGUGCCAA | 0.3
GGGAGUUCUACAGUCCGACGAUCCCUGCAACCCUAGCAAUACCAUGCUCGCUGGAGAGGCUCAGCUGCCUGCUUCUGGCCUGCCUGUGUCUGCUGCCGAGAAGCCCGUGCCCCCGGGAGGGCUGCCGCACUGCUGGAAUUCUCGGGUGCCAA | 0.304
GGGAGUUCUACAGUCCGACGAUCUUUUUUUCUUUUGGUAUUUGCAUAAAAUGAAAAUAUCACCGAAUAUUAAAUCACUGUGGAUCCAUUAUCUACUUUUCAUAUUUGUCCAUUCCAUUUUUGUGCCAUUUCUGUGGAAUUCUCGGGUGCCAA | 0.627
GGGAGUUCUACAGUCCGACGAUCCAUUUUGUGUGUGCAGACAAGGGUGAGGAGACUCGCCAGCCUGCUCUCUCAGGAGCACGUGUGAACCGUCUUCGUGCUUCAGCGAAAGCGAGUUUGAGGCAGUCUUGCAAUGGAAUUCUCGGGUGCCAA | 0.706
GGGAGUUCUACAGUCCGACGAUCUUUUAAUGUGGUGCACACUAUAGCCUCACAAACCUGUUAUUCCAGUGUAAUCUGCAGUGUCGUAACUAAAGUUACUGGCUUGGUCUUAUUUGCACAGUUUUUGCGUCUUGUGGAAUUCUCGGGUGCCAA | 0.311
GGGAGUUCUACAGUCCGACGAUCAUGCCUAAGGGGAGGCCCAACACCAUGAACAACUACGGGGUGCUGCUGCACGAGCUCGGGCUGGACGAGCCGCUGAUGACACCACUGCGGGAGCGCUUCCUGCAGCCGCUUGGAAUUCUCGGGUGCCAA | 0.447
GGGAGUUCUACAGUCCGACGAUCCUUCCAAGAUGAAGAGGAGAAGCAGGCCAACCCUCAAUAAUUGCAAGCCUGAAGAGAAGUGAUCUUAGAGAAAGCAGAGAACAGAAUGGACUGGAUAGACAUCUUGACUCUGGAAUUCUCGGGUGCCAA | 1.26

Series 5 — target: CCNA2, cyclin fold, Cln2 fusion (human); technique: yeast growth competition, sequencing; sample: yeast; setting: strong parent motif; reference: not given; direction: higher = stronger binding
Starting sequence: CDC6 docking peptide (human); TLKGRRLVFDNQL
Variant | normalised enrichment score
G4Y | 0.532
G4P | 5.2
R6D | -0.515
L2A | 1.8
T1N | 3.03
F9T | 0.945
R6G | -0.00303
L13N | 2.8
Q12G | 3.28
L13I | 2.34
L2P | 2.83
G4F | 1.15
Q12V | 3.43
Q12R | 2.16
K3T | 2.34
D10H | 1.75
L13Y | 3.58
T1R | 3.83
K3Y | 2.06
R5A L7A | -0.0845

A few entries again (series 1):
Variant | binding fitness
M51L | -1.47 natural log
L45F | -1.42 natural log
K36L | -1.43 natural log
T48C | -1.49 natural log
T48P | -1.55 natural log
L38R | -1.52 natural log
